Measured values collected from several papers.
Several values in a cell are separate wells, animals, samples, runs or records. ± marks the error that the study gave.

COC(=O)c1ccc([C@@H]2COC(C)(C)[C@@H](c3ccc(Cl)c(Cl)c3)N2)cc1 — logD (shake-flask, 1-octanol/buffer; pH 7.4): > 4.7
COc1cc2c(cc1OC)CN(CCc1ccc(NC(=O)c3cccc4c(=O)c5cccc(OC)c5[nH]c34)cc1)CC2 — free plasma concentration (Sprague Dawley rats, plasma; iv infusion, 0.09 mg/h/kg, 4 h): 0.52 ng/mL
Cc1cc(NC2CCN(C(=O)OC3CCN(C(=O)/C=C/CN(C)C)C3)CC2)n2ncc(C(C)C)c2n1 (centres unmarked) — patients with adverse event (Phase I dose escalation CTCAE v4.0, item: AST increased; patients with advanced solid tumours; dose not given, TIW dosing grade 3 or higher): 0%
CCC[C@H](C)[C@H]1CN(C(=O)OCC)C[C@@H](c2cccc(Br)c2)N1 — logD (shake-flask, 1-octanol/buffer; pH 7.4): > 4.7
CCCCCN1C[C@H](O)[C@@H](O)[C@H](O)[C@@H]1CO — geometric mean brain concentration (LC-MS/MS; Hexb-/- mice, female, brain; 300 mg/kg/day): 268 ng/g
CN(CCC#N)C1CCN(C(=O)Cn2cc(NC(=O)c3cnn4cccnc34)c(-c3cc(Cl)ccc3OC(F)F)n2)CC1 — LDL cholesterol change (human, single ascending dose; 0.5 mg, day 4; reference: baseline): 6.5 mg/dL
C[Si](C)(C)O[Si](C)(C)C — enthalpy of phase change (1-octanol/air; concentration not given): -6.38 kcal/mol
CNc1cc[n+](CCNC(=O)c2ccn3c(-c4c(C)noc4C)cnc3c2)cc1.[Cl-] — largest degradation product (0.1 M HCl; initial, pH 1): not detected
[O]=[Co].[O]=[Co][O][Co]=[O] — creatinine-corrected cobalt concentration (rat, male, urine, 24-h collection; oral gavage, single, 300 mg/kg (220 mg Co/kg), day 1, vehicle 0.5% HPMC): 0.82 µg/µmol creatinine
Cc1nc(C)c(-c2ccnc(Nc3ccc(N(C)C)c(Cl)c3)n2)s1 — logD (octanol/buffer; 67 µM, pH 7.4): 4.57
COc1cc(Nc2ncc3c(n2)-c2ccc(Cl)cc2C(c2c(F)cccc2OC)=NC3)ccc1C(=O)O — patients with adverse event (item: Pain, all grades; cancer patients, phase 1/2; oral, dose not given, together with: pembrolizumab): 17%
COc1ccc(Cl)cc1C(=O)NCCc1ccc(S(=O)(=O)NC(=O)NC2CCCCC2)cc1 — chromatographic hydrophobicity index (HPLC C18 retention; pH 7.4; reference: calibration standards): 63.7
COc1ccc2c(=O)n(C)c(-c3ccccc3)nc2c1 — tissue/plasma ratio (Sprague-Dawley rat, male, stomach; oral, 30 mg/kg, 0.5 h; reference: stomach over plasma): 424
CCn1cc(C(=O)N2CCOCC2)c(=O)c2cc(NC3Cc4ccccc4C3)cnc21 — Cmax (human, fed; oral suspension, 1200 mg/day twice daily, day 8, arithmetic mean): 2780 ng/mL
COc1cccc(-c2cccc(Nc3nccc(NC(C)C)n3)c2)c1 — efflux ratio (MDCKII-WT cells; 10 µM, pH 7.4; reference: Papp B-A over A-B): 1.66
C=CCNc1nc(C)c(-c2ccnc(Nc3cccc([N+](=O)[O-])c3)n2)s1 — logD (octanol/buffer; 67 µM, pH 7.4): > 4.5
Cc1cc(-c2nccc3c2ccn3CC(=O)Nc2ccc(-c3cnccn3)cn2)ccn1 — subjects with serious TEAE (human; 20 mg once daily, multiple ascending dose): 0%
C[C@@H](Nc1cc(F)cc(F)c1)c1cc(C(=O)N(C)C)cc2c(=O)cc(N3CCOCC3)oc12 — related serious adverse events (item: Colitis; advanced solid tumour patients; oral, dose not given, dose expansion): 0%
CCc1nnc(NS(=O)(=O)c2ccc(NC(=O)c3ccc(F)cc3)cc2)s1 — logD (octanol/buffer; pH 7.4): 1.02
Brc1cccc([C@@H]2COC[C@H](C3CCCCC3)N2)c1 — logD (shake-flask, 1-octanol/buffer; pH 7.4): > 4.7
NC1(C(=O)N[C@@H](CCO)c2ccc(Cl)cc2)CCN(c2nc[nH]c3nccc2-3)CC1 — lower abdominal pain incidence (human mCRPC patients; oral, twice daily, 4/7 days, any grade, treatment-related, together with: enzalutamide 160 mg daily): 6.7%
C[C@@H](Oc1ccc(S(C)(=O)=O)cc1C(=O)N1C[C@@H]2C[C@]2(c2cc(C(F)(F)F)on2)C1)C(F)(F)F — %AUC extrapolated (healthy young humans, plasma; oral, 75 mg single dose): 22.6%
CC#CC(=O)N1CCC[C@H]1c1nc(-c2ccc(C(=O)Nc3ccccn3)cc2)c2c(N)nccn12 — cysteine adduct formation (MES buffer; 100 µM, 23 h, pH 5.5, 37 °C, together with: cysteine 10 mM): 19%
CNCc1ccc(-c2[nH]c3cc(F)cc4c3c2CCNC4=O)cc1 — incidence of any adverse event (human patients; oral, 600 mg twice daily, grade 3): 30.8%
c1cc(-c2ccc3ncnc(Nc4ncco4)c3c2)cc(N2CC3CCC(C2)O3)c1 — CLint (human liver microsomes): 72 µL/min/mg
C=CC(=O)Nc1cc(Nc2nccc(-c3cn(C)c4ccccc34)n2)c(OC)cc1N(C)CCN(C)C — recovery (storage stability; human dried blood spots; 72 h, on ice, high QC level): 67.2%
C=CC[C@@H]1/C=C(\C)C[C@H](C)C[C@H](OC)[C@H]2O[C@@](O)(C(=O)C(=O)N3CCCC[C@H]3C(=O)O[C@H](/C(C)=C/[C@@H]3CC[C@@H](O)[C@H](OC)C3)[C@H](C)[C@@H](O)CC1=O)[C@H](C)C[C@@H]2OC — plasma Mg2+ (Wistar Kyoto rat, male, plasma; ip, 0.5 mg/kg/day, day 28, at sacrifice): 0.73 ± 0.07 mmol/L
O=C(Nc1ccccc1)c1cc([N+](=O)[O-])ccc1[76Br] — intact radiotracer (heparinized rat blood; 5 min): 15%
CC(C)(C(=O)N1CCOc2c(C#N)cncc2C1)C(F)F — subjects with adverse event (item: Insomnia; human; oral, 15 mg twice daily, 14 days, multiple ascending dose): 12.5%
Cc1ccc(N(C)C(=O)/C=C/c2ccco2)cc1 — licking latency (hot plate test; mice; oral, 30 mg/kg single, 45 min): 14.9 ± 0.6 s
NC/C(=C\F)COc1cccc(Cn2c(=S)[nH]c(=O)c3[nH]cnc32)c1 — tissue concentration (C57BL/6J mice, lung; oral, 15 mg/kg single, 2 h): 294 ng/mL
NCCOCC(=O)N1CCC[C@H](C(=O)NCc2nc(-c3ccc(C(F)(F)F)cc3)cs2)C1 — biliary excretion, unchanged (rat, bile duct-cannulated, anaesthetised, bile; intravenous, dose not given, 6 h; reference: dose): 17%
CNCCOC12CC3(C)CC(C)(CC(Cn4ncc(-c5ccc(N6CCc7cccc(C(=O)Nc8nc9ccccc9s8)c7C6)nc5C(=O)O)c4C)(C3)C1)C2 — dP/dt at 50 change (beagle dog, male, anaesthetised; intravenous bolus, 0.03 mg/kg, 135 min; reference: baseline): -10%
CCN1/C(=C/C(C)=O)Sc2ccc(F)cc21 — PR interval (cynomolgus monkey; oral, 100 mg/kg, 0.5 h post-dose): 90 ± 3 ms
CN(CCC(=O)O)C(=O)c1ccc2c(c1)CC[C@@H]1[C@@H]2CC[C@]2(C)C(c3cncc(F)c3)=CC[C@@H]12 — total bilirubin change (premenopausal women, endometriosis pain, serum; 60 mg twice daily, visit 5, mean; reference: baseline): 0.855 mg/dL
O=C(O)CSc1nnc(Br)n1-c1ccc(C2CC2)c2ccccc12 — body weight (KM mouse, chronic hyperuricaemia model; dose not given, day 6): 28.5 g and 23.7 g and 30.8 g and 28 g and 29.5 g and 23.6 g
CCCCC(CC)COC(=O)c1ccc(O)cc1 (centres unmarked) — mass balance (empty Transwells without cells; 5 µM, 60 min, basolateral to apical): 25%
CN1CCCC1CCNS(=O)(=O)c1ccc2c(c1)CN(CC1CCCCC1)CC2 (centres unmarked) — Cmin (wild-type mouse, pons/cerebellum; oral in diet, 0.0002% in diet, 6 months): 0.955 ng/g
Cl.[2H]C([2H])([2H])CC(=O)c1cnc(NC(=O)C2CC2)cc1Nc1cccc(-c2ncn(C([2H])([2H])[2H])n2)c1OC — CL/F (geometric mean; human; 20 mg twice daily, day 1, fed, liquid, multiple dose): 19.2 L/h
CCCOc1ccc(NC(=O)CN2CCN(C)CC2)cc1-c1nc(CC)c(CC)c(=O)[nH]1 — headache incidence (healthy Chinese men; 10 mg, together with: placebo alcohol): 20%
CNC(=O)c1ccc(-c2cnc3ncc(Cc4ccc5ncccc5c4)n3n2)cc1F — Hypokalaemia dose reduction/interruption (Japanese patients; oral, 400 mg, any grade): 1%
O=C(N[C@H](Cc1c[nH]c2ccccc12)C(=O)Nc1ccncc1)c1ccc(N2CCN(c3ccc(F)cc3F)CC2)cc1F — concentration (Swiss Webster mouse, female, lung; oral, 50 mg/kg, 8 h, 20% Kolliphor vehicle): 20.7 µM
CC(C)(C)c1ccc([C@H]2COC[C@H](C3CCCCC3)N2)cc1 — logD (shake-flask, 1-octanol/buffer; pH 7.4): > 4.7
c1ccc(CN2CCCN3CCN(Cc4ccccc4)CCCN(CC2)Cc2cccc(n2)C3)cc1 — intact complex (64Cu complex; 12 h, pH 7.4, 37 °C, together with: DOTA excess): 95%
O=C(Nc1nc2cccc(-c3ccc(CN4CCS(=O)(=O)CC4)cc3)n2n1)C1CC1 — patients with Thrombocytopenia (rheumatoid arthritis patients; oral, 100 mg twice daily, 4 weeks, TEAE regardless of relatedness): 0%
CC[C@H](C)[C@H](NC(=O)[C@H](Cc1ccccc1)NC(=O)[C@H](CCC(=O)O)NC(=O)[C@H](CCCCNC(=O)COCCOCCNC(=O)COCCOCCNC(=O)CC[C@H](NC(=O)CCCCCCCCCCCCCCCCC(=O)O)C(=O)O)NC(=O)[C@H](C)NC(=O)[C@H](C)NC(=O)[C@H](CCC(N)=O)NC(=O)CNC(=O)[C@H](CCC(=O)O)NC(=O)[C@H](CC(C)C)NC(=O)[C@H](Cc1ccc(O)cc1)NC(=O)[C@H](CO)NC(=O)[C@H](CO)NC(=O)[C@@H](NC(=O)[C@H](CC(=O)O)NC(=O)[C@H](CO)NC(=O)[C@@H](NC(=O)[C@H](Cc1ccccc1)NC(=O)[C@@H](NC(=O)CNC(=O)[C@H](CCC(=O)O)NC(=O)C(C)(C)NC(=O)[C@@H](N)Cc1cnc[nH]1)[C@@H](C)O)[C@@H](C)O)C(C)C)C(=O)N[C@@H](C)C(=O)N[C@@H](Cc1c[nH]c2ccccc12)C(=O)N[C@@H](CC(C)C)C(=O)N[C@H](C(=O)N[C@@H](CCCNC(=N)N)C(=O)NCC(=O)N[C@@H](CCCNC(=N)N)C(=O)NCC(=O)O)C(C)C — QTcF change from baseline (12-lead Holter ECG; healthy humans; subcutaneous, 1.5 mg once weekly, 30 h, steady state; reference: placebo): -1.3 ms
O=C(O)CCC(=O)O.[2H]C([2H])([2H])Oc1cc(C)c2[nH]ccc2c1CN1CC[C@@H](C2CC2)C[C@H]1c1ccc(C(=O)O)cc1 — subjects with drug-related TEAE (healthy Chinese subjects; 125 mg twice daily, multiple ascending dose): 37.5%
Cn1cnc2c(F)c(Nc3ccc(Br)cc3Cl)c(C(=O)NOCCO)cc21 — absorption lag time (population PK model; human, plasma; oral, sequential zero-first-order absorption, fed): 0.66 h
Cc1ccc([C@@H]2O[C@H](CO)[C@@H](O)[C@H](O)[C@H]2O)cc1Cc1ccc(-c2ccc(F)cc2)s1 — urinary chloride excretion change (Japanese type 2 diabetes patients; 25 mg, day 15, 24 h urine collection; reference: baseline): 47.6 mEq
O=C(O)CN1CCCN2CCN(CC(=O)O)CCCN(CC1)Cc1cccc(n1)C2 — intact complex (64Cu complex in rat plasma; 0.5 h, 37 °C): 98%
Cc1cc(Nc2cc3ncccc3c(N[C@@H]3C[C@H]4CC[C@@H](C3)N4CCC#N)n2)n[nH]1 — skin subcutaneous disorders incidence (healthy human subjects; oral, 10 mg, 14 days, multiple ascending dose): 50%
CCO[C@H]1CCN(Cc2c(OC)cc(C)c3[nH]ccc23)[C@H](c2ccc(C(=O)O)cc2)C1 — incidence of abdominal discomfort (PNH patients, active haemolysis; oral, 200 mg, 8 weeks, treatment): 0%
Nc1ncnc2c1ncn2[C@H]1C[C@@H]2OP(=O)(O)OC[C@H]3O[C@@H](n4cnc5c(N)ncnc54)C[C@@H]3OP(=O)(O)OC[C@H]2O1 — RDW-SD (non-tumor-bearing mice, blood; intravenous, 1 mg/kg, toxicity study): 20.6 ± 0.61 fL
COc1cc2c3c(n(CCCN4CCOCC4)c(=O)c2cc1OC)-c1cc2c(cc1C3=O)OCO2 — clearance (beagle dog, plasma; intravenous infusion, 1 h infusion): 28 to 58 L/h/m²
CCO[C@H]1CCN(Cc2c(OC)cc(C)c3[nH]ccc23)[C@H](c2ccc(C(=O)O)cc2)C1 — total Cmax (human severe hepatic impairment, plasma; oral, 200 mg single dose, mean): 3340 ng/mL
CCCCC1=NC2(CCCC2)C(=O)N1Cc1ccc(-c2ccccc2S(=O)(=O)Nc2noc(C)c2C)c(COCC)c1 — Tmax (healthy adult volunteers, plasma; oral, 800 mg, 14 days repeated dosing, fasted, crushed tablet): 3.25 h
